Assay results collected from several papers.
± marks the error that the study gave.
Ectonucleoside triphosphate diphosphohydrolase 1: Ectonucleoside triphosphate diphosphohydrolase 1 (Homo sapiens, UniProt P49961)
HTR1A: 5-hydroxytryptamine receptor 1A (HTR1A, Homo sapiens, UniProt P08908)
KDM1A: Lysine-specific histone demethylase 1A (KDM1A, Homo sapiens, UniProt O60341)
CDC25B: M-phase inducer phosphatase 2 (CDC25B, Homo sapiens, UniProt P30305)
HDAC8: Histone deacetylase 8 (HDAC8, Homo sapiens, UniProt Q9BY41)
Si: Sucrase-isomaltase, intestinal (Si, Rattus norvegicus, UniProt P23739)
PARP1: Poly [ADP-ribose] polymerase 1 (PARP1, Homo sapiens, UniProt P09874)

SMILES | target | test | system | setting | inhibition
CN=c1nc(-c2ccccc2)n(-c2ccccc2)s1 | Trypanothione synthetase (Trypanosoma cruzi, UniProt Q9GT49) | enzyme activity, inhibitor, absorbance | – | 25 µM | 43.4%
COc1cc(C(=O)NC2CCC(N3CCN(CC4CCC5(CCCC5)C4)CC3)CC2)c(F)cc1Nc1ncc2c(n1)N(C1CCCC1(F)F)CC(F)(F)C(=O)N2C (centres unmarked) | KIT (Homo sapiens, UniProt P10721) | cell-free assay, TR-FRET | – | 10 µM | 0.77%
CCNC(=O)Nc1ccc(OCCCCCCCOc2ccc(NC(=O)NCC)cc2)cc1 | Transcription antitermination protein NusB, with NusE (nusB, Bacillus subtilis, UniProt P54520) | protein-protein interaction, inhibitor, competitive ELISA | – | 25 µM, 15 min preincubation, 37 °C, with: 200 nM GST-NusE | 7%
Cc1cc(C#N)cc(C)c1Oc1cc(Nc2ccc(C#N)cn2)nc2ccncc12 | Gag-Pol polyprotein, reverse transcriptase (gag-pol, Human immunodeficiency virus type 1 group M subtype B, UniProt P04585) | enzyme activity, inhibitor, ELISA | – | 1 µM | 77.2%
O=c1c(F)cn(Cc2cn([C@H]3O[C@H](CO)[C@@H](O)[C@H](O)[C@H]3O)nn2)c(=O)n1Cc1cn([C@H]2O[C@H](CO)[C@@H](O)[C@H](O)[C@H]2O)nn1 | GAA (Homo sapiens, UniProt P10253) | enzyme activity, inhibitor, fluorescence | – | 1.43 mM, pH 4, lysate | 18%
O=C(NCc1ccccc1)c1cc(S(=O)(=O)NCc2ccccc2)ccc1Cl | Ectonucleoside triphosphate diphosphohydrolase 1 | enzyme activity, inhibitor, absorbance | – | 100 µM | 42%
COC(=O)C1=CNC=C(C(=O)OC)C1c1ccc(F)c(C(F)(F)F)c1 | PGR (Homo sapiens, UniProt P06401) | cell-free assay | – | 3 µM | 40 to 60%
COc1ccccc1CNC(=O)CCn1c(=O)[nH]c2ccsc2c1=O | Heat shock protein 90, N-terminal domain (Plasmodium falciparum, UniProt Q8IC05) | ligand displacement, FP | – | 10 µM | 69%
CCC(=O)N(C)c1ccc(Cl)c(Cl)c1 | HTR1A | ligand displacement, radioligand | – | 10 µM | 20.7%
OCCNc1cc(Sc2nnnn2-c2ccccc2)nc(SCc2cn(Cc3ccccc3)nn2)n1 | KDM1A | enzyme activity, inhibitor, fluorescence | – | 10 µM | 36.3%
C=CC(=O)N1C[C@H](C)N(c2nc(OC[C@@]34CCCN3C[C@H](F)C4)nc3c(F)c(-c4ccc(F)c5sc(N)c(C#N)c45)c(C(F)(F)F)cc23)C[C@H]1C | CDK8 (Homo sapiens, UniProt P49336) | binding, KINOMEscan | – | 1 µM | 93%
N#Cc1c(F)c(F)c2nc(SCC3CCCO3)nc(N)c2c1F (centres unmarked) | CDC25B | enzyme activity, inhibitor, fluorescence | – | 20 µg/mL | 99.9%
CCCCCCCCCCCCCCCC(=O)N[C@@H](CCCCN)C(=O)N[C@@H](CCCCN)C(=O)N[C@@H](CO)C(=O)N[C@@H](CCCNC(=N)N)C(=O)N[C@@H](C)C(=O)N[C@@H](CC(C)C)C(=O)N[C@@H](Cc1ccccc1)C(N)=O | F2R (Homo sapiens, UniProt P25116) | platelet aggregation, antagonist | human gel-filtered platelets | concentration not given, with: SFLLRN 2.5 µM | inhibited
O=[N+]([O-])c1ccc(Cn2cc(Cn3cc(CO)nn3)nn2)cc1 | RAC-alpha serine/threonine-protein kinase, PH domain (AKT1, Homo sapiens, UniProt P31749) | PI(3,4,5)P3 binding, competitive SPR | – | 5 µM, PH domain 500 nM | 33 ± 3%
N[C@H]1CCCc2c1[nH]c1ccc(Cl)cc21 | HTR1A | ligand displacement, radioligand | – | 10 µM | 13.2%
NC(=O)c1ccc(C(=O)NOCc2ccc(Sc3cccc(Cl)c3)c(C(F)(F)F)c2)cc1 | HDAC8 | cell-free assay, inhibitor | – | 100 µM | 22.2%
Oc1cc(O)c2c(c1)O[C@H](c1cc(O)c(O)c(O)c1)[C@@H](O)C2 (racemic) | Si | enzyme activity, inhibitor | rat intestinal brush border vesicles | 10 µM | 93.8%
COc1cc(OC)c2c(=O)[nH]c(-c3ccc(C4CCCNC4)cc3)nc2c1 (centres unmarked) | PARP1 | enzyme activity, inhibitor, ELISA | – | 10 µM | 30%
CC(C)(C)C(=O)CN1C(=O)[C@H](NC(=O)Nc2cccc(C(=O)NCCOCCOCCOCCC(=O)N[C@H](CCC(=O)O)C(=O)N[C@H](CCC(=O)O)C(=O)N[C@H](CCC(=O)O)C(=O)N[C@H](CCC(=O)O)C(=O)N[C@@H](CCCCNC(=O)C(CNCCN)CNCCN)C(=O)O)c2)CN(C2CCCCC2)c2ccccc21 | CCKBR (Homo sapiens, UniProt P32239) | calcium signal, antagonist | – | 0.1 µM | ~54%

SMILES | target | test | system | setting | inhibition
COC(=O)Nc1ccc2c(c1)c(Cc1ccc(C(=O)NS(=O)(=O)c3ccc(C(F)(F)F)cc3)cc1OC)cn2C | Tumor necrosis factor receptor superfamily member 1A (Homo sapiens, UniProt P19438) | NF-κB reporter gene, luciferase reporter | HEK293 cells | 0.5 µM, 24 h, with: TNF 10 ng/mL | 32 to 40%
O=C(O[C@H]1Cc2c(O)cc(O)cc2O[C@@H]1c1cc(O)c(O)c(O)c1)c1cc(O)c(O)c(O)c1 | Si | enzyme activity, inhibitor | rat intestinal brush border vesicles | 10 µM | 77.5%
O=C(Nc1ccc(Cl)cc1)c1cccc(S(=O)(=O)Nc2ccc(Cl)cc2)c1 | Ectonucleoside triphosphate diphosphohydrolase 1 | enzyme activity, inhibitor, absorbance | – | 100 µM | 9%
CCn1c2ccccc2c2cc(CN[C@H]3CC[C@H](NC(=O)c4cc5ccccc5[nH]4)CC3)ccc21 | DRD3 (Homo sapiens, UniProt P35462) | cell-free assay, inhibitor | – | 10 µM | 88.9%
CCCCC(C)Sc1nc2c([nH]1)c(=S)n(C)c(=O)n2C (centres unmarked) | Nr3c1 (Rattus norvegicus, UniProt P06536) | reporter gene | T47D/A1-2 | 10 µM, with: dexamethasone | inactive
O=C(NC1CCCC1)c1cccc(S(=O)(=O)NC2CCCC2)c1 | Ectonucleoside triphosphate diphosphohydrolase 1 | enzyme activity, inhibitor, absorbance | – | 100 µM | 17%
CCCCSc1nc(N)c2c(F)c(F)c(C#N)c(F)c2n1 | CDC25B | enzyme activity, inhibitor, fluorescence | – | 20 µg/mL | 96.6%
Cc1ccnc(-c2cc(C(=O)NCCCCn3cc(CN(CC(N)=O)C(=O)CN(CCCCN)C(=O)CN(CCCCN)C(=O)CN(C(=O)CN(CC(C)C)C(=O)CN(CC(C)C)C(=O)CN(CCc4c[nH]c5ccccc45)C(=O)CN(CCCCN)C(=O)C(N)CCCCNC(=O)CCCCCNc4ncnc5[nH]cnc45)C(C)c4ccccc4)nn3)ccn2)c1 (centres unmarked) | Coelenterazine h 2-monooxygenase (Renilla reniformis, UniProt P27652) | luciferase activity | transfected HeLa | 1 µM, irradiated 30 min | no inhibition
C=CCSc1nc(N)c2c(F)c(C#N)c(F)c(F)c2n1 | CDC25B | enzyme activity, inhibitor, fluorescence | – | 20 µg/mL | 99.6%
O=C1N[C@@H](CO)C[C@H](O)c2ccccc21 (relative stereo) | PARP1 | enzyme activity, inhibitor | – | 10 µM | 0%
C[Si](C)(C)C[C@H](CN)CC(=O)O | Voltage-dependent calcium channel subunit alpha-2/delta-1 (Rattus norvegicus, UniProt P54290) | [3H]gabapentin binding | rat cerebral cortex membranes | 6.25 µM, with: [3H]gabapentin 20 nM | 72%
O=C(CCCOc1ccc(Cl)cc1Cl)N/N=C/c1ccc[nH]1 | dxs (Deinococcus radiodurans, UniProt Q9RUB5) | enzyme activity, inhibitor | – | 120 µM | 14%
CC(=O)c1cnc(N)nc1N1CC[C@H]1c1nn2ccc(Cl)c2c(=O)n1-c1ccccc1 | KCND3 (Homo sapiens, UniProt Q9UK17) | ion current, inhibitor | – | 3 µM | < 10%
CCCCCCCCSc1nc(N)c2c(F)c(C#N)c(F)c(F)c2n1 | CDC25B | enzyme activity, inhibitor, fluorescence | – | 20 µg/mL | 99.7%
O=C(NO)C1=CCCC1 | HDAC8 | enzyme activity, inhibitor | – | 100 µM | < 10%
COc1cccc(CSc2nc(N)c3c(F)c(C#N)c(F)c(F)c3n2)c1 | CDC25B | enzyme activity, inhibitor, fluorescence | – | 20 µg/mL | 83.3%
Cc1ccc(Nc2nc(SCc3cn(Cc4ccccc4Cl)nn3)nc(-c3ccc(Br)cc3)c2C#N)cc1 | KDM1A | enzyme activity, inhibitor, fluorescence | – | 1 µM | 8.4%
N#CCSc1nc(N)c2c(F)c(C#N)c(F)c(Cl)c2n1 | CDC25B | enzyme activity, inhibitor, fluorescence | – | 20 µg/mL | 73.8%
C[C@@H](N)C1CCN(S(=O)(=O)c2cccc3c(=O)[nH]ccc23)CC1 | ROCK1 (Homo sapiens, UniProt Q13464) | cell-free assay, competition with immobilised ligand | – | 10 µM | > 95%

For quick reference, copied from above:
SMILES | target | test | system | setting | inhibition
O=C(O[C@H]1Cc2c(O)cc(O)cc2O[C@@H]1c1cc(O)c(O)c(O)c1)c1cc(O)c(O)c(O)c1 | Si | enzyme activity, inhibitor | rat intestinal brush border vesicles | 10 µM | 77.5%
N[C@H]1CCCc2c1[nH]c1ccc(Cl)cc21 | HTR1A | ligand displacement, radioligand | – | 10 µM | 13.2%
CCn1c2ccccc2c2cc(CN[C@H]3CC[C@H](NC(=O)c4cc5ccccc5[nH]4)CC3)ccc21 | DRD3 (Homo sapiens, UniProt P35462) | cell-free assay, inhibitor | – | 10 µM | 88.9%
O=C(NC1CCCC1)c1cccc(S(=O)(=O)NC2CCCC2)c1 | Ectonucleoside triphosphate diphosphohydrolase 1 | enzyme activity, inhibitor, absorbance | – | 100 µM | 17%
CCCCCCCCSc1nc(N)c2c(F)c(C#N)c(F)c(F)c2n1 | CDC25B | enzyme activity, inhibitor, fluorescence | – | 20 µg/mL | 99.7%
